Assay results from different studies.
Lines come from different studies, so protocols differ. “And” joins repeats or separate records; there may be more than shown. ± marks the error that the study gave. Square brackets hold non-standard residues; d marks the D form. * marks the point of attachment.
HapB/HapC/HapE/HapX HapX 24-158: HapB/HapC/HapE/HapX HapX 24-158 (Aspergillus fumigatus)
B1: acrA (Escherichia coli, UniProt P0AE06); N-terminal lipid at C25; chain CDDKQAQQGGQQMPAVGVVTVKTEPLQITTELPGRTSAYRIAEVRPQVSGIILKRNFKEGSDIEAGVSLYQIDPATYQATYDSAKGDLAKAQAAANIAQLTVNRYQKLLGTQYISKQEYDQALADAQQANAAVTAAKAAVETARINLAYTKVTSPISGRIGKSNVTEGALVQNGQATALATVQQLDPIYVDVTQSSNDFLRLKQELANGTLKQENGKAKVSLITSDGIKFPQDGTLEFSDVTVDQTTGSITLRAIFPNPDHTLLPGMFVRARLEEGLNPNAILVPQQGVTRTPRGDATVLVVGADDKVETRPIVASQAIGDKWLVTEGLKAGDRVVISGLQKVRPGVQVKAQEVTADNNQQAASGAQPEQSKS

`melittin`: “heat capacity change” -0.6 kcal/mol/K (membrane partitioning, CD van't Hoff analysis; POPC/POPG LUVs 100:0%; concentration not given, 5 to 60 °C).
The Kd of `{FITC}-GFID[pS]D[pT]DVEEE-NH2 (peptide; N-terminal FITC, pS5, pT7, C-terminal amide; FITC = O=C1OC2(c3ccc(O)cc3Oc3cc(O)ccc32)c2ccc(NC(=S)*)cc21; pS = N[C@@H](COP(=O)(O)O)C(=O)O; pT = C[C@@H](OP(=O)(O)O)[C@H](N)C(=O)O)` is reported as 21000 ± 2000 nM (TOPBP1 641-746 Y678A (Homo sapiens, UniProt Q92547); fluorescence polarisation; peptide; pH 7.5, NaCl 150 mM).
For `[N-]=[N+]=Nc1ccc[n+]([C@@H]2O[C@H](COP(=O)([O-])OP(=O)(O)OC[C@H]3O[C@@H](n4cnc5c(N)ncnc54)[C@H](O)[C@@H]3O)[C@@H](O)[C@H]2O)c1`, the Kd was 8200 nM (FDH1 (Candida boidinii, UniProt O13437); isothermal titration calorimetry; pH 7.5, together with: azide).
`AATCCAGCCAATCATTCCGACCGTATTACCACGCGGA (dsDNA)` gave a Kd of < 100 nM (HapB/HapC/HapE/HapX HapX 24-158; SPR; double-stranded DNA, one strand shown; HapX on preformed CBC:DNA).
The Kd of `Nc1nc2c(ncn2[C@H]2C[C@H](O)[C@@H](COP(=O)(O)OP(=O)(O)OP(=O)(O)O)O2)c(=O)[nH]1` is reported as 500 ± 200 nM (DNA-directed DNA polymerase, with primer/template (43, Escherichia phage RB69, UniProt Q38087, D222A/D327A/Y567A); fluorescence titration; dNTP opposite tC°).
`CC[C@H](C)[C@H](NC(=O)[C@@H](NC(=O)[C@@H]1CCCN1C(=O)[C@@H](NC(=O)[C@H](CCCCN)NC(=O)CN)C(C)C)[C@@H](C)CC)C(=O)N[C@@H](Cc1ccc(O)cc1)C(=O)N[C@H]1CSSC[C@@H](C(=O)N[C@@H](CCCCN)C(=O)N[C@@H](CCCNC(=N)N)C(=O)N[C@@H](CCSC)C(=O)O)NC(=O)[C@H](C(C)C)NC(=O)CNC(=O)[C@H]([C@@H](C)O)NC(=O)[C@H](CCCCN)NC(=O)[C@H](CCCNC(=N)N)NC(=O)[C@H](CC(N)=O)NC1=O` gave a Kd of 2 nM (lptA (Escherichia coli, UniProt P0ADV1); binding, BLI).
`CC(=O)N[C@@H](CC(C)C)C(=O)N[C@@H](CCCCN)C(=O)N[C@@H](CCCCN)C(=O)N[C@@H](CC(C)C)C(=O)N[C@@H](CC(C)C)C(=O)N[C@@H](CCCCN)C(=O)N[C@@H](CC(C)C)C(=O)N[C@@H](CC(C)C)C(=O)N[C@@H](CCCCN)C(=O)N[C@@H](CCCCN)C(=O)N[C@@H](CC(C)C)C(=O)N[C@@H](CC(C)C)C(=O)N[C@@H](CCCCN)C(=O)N[C@@H](Cc1c[nH]c2ccccc12)C(=O)N[C@@H](C)C(=O)NCC(N)=O` gave a Kd of 0.69 ± 0.06 nM (HCV IRES domain IV hairpin; competitive fluorescence anisotropy; pH 7.4, 20 °C, together with: rhodamine-Rev peptide).
The Kd of `TTACCAGCCAATCACATGCTGTGTATTAGCAGCCACC (dsDNA)` is reported as < 100 nM (HapB/HapC/HapE/HapX HapX 24-158; SPR; double-stranded DNA, one strand shown; HapX on preformed CBC:DNA).
The Kd of `maltotriose` is reported as 150 ± 10 nM (malE (Escherichia coli, UniProt P0AEX9); ClyA nanopore single-channel recording).
`RmS-6, glycosylated (Rhipicephalus microplus)` gave a protease inhibition of < 20% (PLAT (Homo sapiens, UniProt P00750); chromogenic substrate hydrolysis, inhibitor; 1 µM).
With `[Ni+2]` the Kd was 1840 nM (methionine aminopeptidase (Acinetobacter baumannii, UniProt V5VCW7); metal binding, activator, activity titration; ATCC 17978; divalent metal ion Kd, together with: Met-AMC substrate).
For `5′-methylthioadenosine`, the Kd was 8 ± 5 nM (MTAP (Homo sapiens, UniProt Q13126); ligand, isothermal titration calorimetry; pH 7.4, 25 °C, first set of sites).
With `[Cl-].[Cl-].[Zn+2]` the Kd was 90000 nM (Genome polyprotein, NS3 helicase domain (Hepatitis C virus genotype 1b, UniProt Q9WMX2); binding, FRET; pH 6.25, together with: 2 µM mantADP-BeF3).
For `COc1ccc2cc3[n+](cc2c1OC)CCc1cc2c(cc1-3)OCO2`, the Kd was 1350 ± 100 nM (HTH-type transcriptional regulator QacR (qacR, Staphylococcus aureus, UniProt P0A0N4, E58A)).
`NC(=O)C1=CN([C@@H]2O[C@H](COP(=O)(O)OP(=O)(O)OC[C@H]3O[C@@H](n4cnc5c(N)ncnc54)[C@H](OP(=O)(O)O)[C@@H]3O)[C@@H](O)[C@H]2O)C=CC1` has a Kd of 152000 ± 80000 nM (Kynurenine 3-monooxygenase (Pseudomonas fluorescens, UniProt Q84HF5); fluorescence polarization displacement; pH 7.0, together with: 30 nM fluorescent probe).
`B1 (acrA)` gave a koff of 0.00291 s⁻¹ (acrB C493S/C887S/S1043C (Escherichia coli, UniProt P31224); SPR; pH 7.5, 150 mM NaCl, global fit, Langmuir).
`O=C(O)COc1ccccc1` has a Kd of ~500000 nM (PIN8 (Arabidopsis thaliana, UniProt Q9LFP6); cell-free assay).
`Cc1cc2ccccc2c2ccc3ccccc3c12` has a Kd of < 2500 nM and 1900 nM (Cytochrome P450 1B1 (CYP1B1, Homo sapiens, UniProt Q16678); binding, fluorescence; pH 7.4).

Excerpt of the above:
The Kd of `TTACCAGCCAATCACATGCTGTGTATTAGCAGCCACC (dsDNA)` is reported as < 100 nM (HapB/HapC/HapE/HapX HapX 24-158; SPR; double-stranded DNA, one strand shown; HapX on preformed CBC:DNA).
The Kd of `maltotriose` is reported as 150 ± 10 nM (malE (Escherichia coli, UniProt P0AEX9); ClyA nanopore single-channel recording).
